Experimental data pooled from the literature.
± marks the error that the study gave.
CHRM1: Muscarinic acetylcholine receptor M1 (CHRM1, Homo sapiens, UniProt P11229)
UniProt P11229, sequence (whole entry, looked up): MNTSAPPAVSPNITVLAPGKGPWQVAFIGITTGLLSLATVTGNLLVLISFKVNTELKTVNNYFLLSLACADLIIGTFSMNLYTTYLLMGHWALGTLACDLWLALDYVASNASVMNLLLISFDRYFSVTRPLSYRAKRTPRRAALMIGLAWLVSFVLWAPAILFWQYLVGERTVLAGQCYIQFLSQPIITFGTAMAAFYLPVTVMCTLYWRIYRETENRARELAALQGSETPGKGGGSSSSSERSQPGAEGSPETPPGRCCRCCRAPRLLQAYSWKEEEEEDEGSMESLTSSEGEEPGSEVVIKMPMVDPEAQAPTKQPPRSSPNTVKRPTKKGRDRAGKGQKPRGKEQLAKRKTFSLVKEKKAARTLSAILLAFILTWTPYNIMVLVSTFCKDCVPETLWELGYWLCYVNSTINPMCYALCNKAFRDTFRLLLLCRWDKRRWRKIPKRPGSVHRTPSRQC
T1: c-di-GMP riboswitch (Clostridium acetobutylicum); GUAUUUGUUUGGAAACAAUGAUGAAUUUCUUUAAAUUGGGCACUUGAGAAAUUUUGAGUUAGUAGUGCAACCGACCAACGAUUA
UniProt P21980, sequence (whole entry, looked up): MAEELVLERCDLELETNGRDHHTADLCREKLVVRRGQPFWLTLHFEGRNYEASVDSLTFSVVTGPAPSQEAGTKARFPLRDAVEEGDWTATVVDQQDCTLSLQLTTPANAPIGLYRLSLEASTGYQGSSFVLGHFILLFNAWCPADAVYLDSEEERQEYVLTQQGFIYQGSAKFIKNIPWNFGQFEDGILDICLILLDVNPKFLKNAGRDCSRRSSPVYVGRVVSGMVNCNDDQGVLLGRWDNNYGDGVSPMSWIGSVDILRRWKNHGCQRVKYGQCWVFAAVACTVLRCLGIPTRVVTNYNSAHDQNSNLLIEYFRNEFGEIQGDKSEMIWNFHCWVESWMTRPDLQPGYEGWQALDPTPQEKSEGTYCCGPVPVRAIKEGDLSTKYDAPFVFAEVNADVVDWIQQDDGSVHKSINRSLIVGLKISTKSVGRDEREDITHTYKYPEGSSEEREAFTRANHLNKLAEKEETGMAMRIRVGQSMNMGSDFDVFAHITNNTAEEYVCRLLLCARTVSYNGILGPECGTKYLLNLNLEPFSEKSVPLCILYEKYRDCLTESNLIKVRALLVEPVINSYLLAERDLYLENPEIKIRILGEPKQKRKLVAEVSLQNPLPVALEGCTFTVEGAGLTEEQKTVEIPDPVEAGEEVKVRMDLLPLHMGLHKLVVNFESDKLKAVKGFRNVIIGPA
UniProt Q9Y5Y9, sequence (whole entry, looked up): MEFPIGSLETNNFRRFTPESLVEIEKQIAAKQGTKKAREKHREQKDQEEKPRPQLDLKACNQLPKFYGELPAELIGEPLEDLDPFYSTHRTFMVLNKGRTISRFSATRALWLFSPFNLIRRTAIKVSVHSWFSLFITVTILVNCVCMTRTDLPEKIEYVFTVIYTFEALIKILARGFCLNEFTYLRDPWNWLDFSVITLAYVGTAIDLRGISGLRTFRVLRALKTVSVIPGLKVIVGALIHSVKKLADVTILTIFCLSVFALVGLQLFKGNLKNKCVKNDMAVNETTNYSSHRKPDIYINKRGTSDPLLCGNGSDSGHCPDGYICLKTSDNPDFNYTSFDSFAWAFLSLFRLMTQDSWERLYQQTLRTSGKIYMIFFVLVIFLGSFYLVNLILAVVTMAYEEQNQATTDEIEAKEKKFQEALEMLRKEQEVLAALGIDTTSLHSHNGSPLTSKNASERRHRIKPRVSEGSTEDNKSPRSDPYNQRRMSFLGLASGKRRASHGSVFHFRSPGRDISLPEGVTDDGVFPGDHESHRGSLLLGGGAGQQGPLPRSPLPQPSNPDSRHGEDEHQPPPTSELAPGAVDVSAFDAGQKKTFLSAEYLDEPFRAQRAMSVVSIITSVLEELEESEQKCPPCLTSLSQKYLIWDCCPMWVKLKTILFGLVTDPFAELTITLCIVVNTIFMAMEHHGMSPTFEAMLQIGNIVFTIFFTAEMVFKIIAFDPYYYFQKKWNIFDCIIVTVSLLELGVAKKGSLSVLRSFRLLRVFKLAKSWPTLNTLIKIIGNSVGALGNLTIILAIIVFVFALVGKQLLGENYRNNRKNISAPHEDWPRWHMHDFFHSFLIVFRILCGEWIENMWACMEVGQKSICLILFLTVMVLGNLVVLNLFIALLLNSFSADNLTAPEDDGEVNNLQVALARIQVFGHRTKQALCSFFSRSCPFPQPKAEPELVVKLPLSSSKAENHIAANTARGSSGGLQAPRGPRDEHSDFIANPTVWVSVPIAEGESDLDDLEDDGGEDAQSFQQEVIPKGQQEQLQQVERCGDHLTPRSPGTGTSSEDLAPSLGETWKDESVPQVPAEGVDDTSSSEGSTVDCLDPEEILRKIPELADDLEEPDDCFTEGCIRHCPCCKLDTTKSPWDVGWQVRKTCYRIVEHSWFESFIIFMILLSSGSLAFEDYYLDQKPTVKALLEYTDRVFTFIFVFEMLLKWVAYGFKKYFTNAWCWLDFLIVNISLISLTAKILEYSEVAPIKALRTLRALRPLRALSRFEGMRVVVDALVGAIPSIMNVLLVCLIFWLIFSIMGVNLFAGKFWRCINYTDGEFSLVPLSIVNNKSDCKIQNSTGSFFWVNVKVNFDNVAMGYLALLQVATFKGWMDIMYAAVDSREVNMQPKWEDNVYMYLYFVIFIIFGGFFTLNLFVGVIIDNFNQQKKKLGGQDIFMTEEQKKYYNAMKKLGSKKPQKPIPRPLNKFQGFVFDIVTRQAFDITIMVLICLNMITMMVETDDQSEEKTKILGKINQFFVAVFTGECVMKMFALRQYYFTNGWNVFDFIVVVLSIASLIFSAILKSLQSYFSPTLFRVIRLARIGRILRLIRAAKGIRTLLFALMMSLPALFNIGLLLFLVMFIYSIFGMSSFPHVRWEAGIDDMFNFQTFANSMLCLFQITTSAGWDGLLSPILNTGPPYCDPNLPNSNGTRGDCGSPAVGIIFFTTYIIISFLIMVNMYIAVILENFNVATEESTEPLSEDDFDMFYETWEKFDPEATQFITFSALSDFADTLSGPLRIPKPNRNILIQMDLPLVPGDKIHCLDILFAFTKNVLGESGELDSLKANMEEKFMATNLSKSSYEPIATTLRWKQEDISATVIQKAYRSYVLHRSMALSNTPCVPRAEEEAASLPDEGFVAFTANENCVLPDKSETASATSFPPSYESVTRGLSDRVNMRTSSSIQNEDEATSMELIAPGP
UniProt P08173, sequence (whole entry, looked up): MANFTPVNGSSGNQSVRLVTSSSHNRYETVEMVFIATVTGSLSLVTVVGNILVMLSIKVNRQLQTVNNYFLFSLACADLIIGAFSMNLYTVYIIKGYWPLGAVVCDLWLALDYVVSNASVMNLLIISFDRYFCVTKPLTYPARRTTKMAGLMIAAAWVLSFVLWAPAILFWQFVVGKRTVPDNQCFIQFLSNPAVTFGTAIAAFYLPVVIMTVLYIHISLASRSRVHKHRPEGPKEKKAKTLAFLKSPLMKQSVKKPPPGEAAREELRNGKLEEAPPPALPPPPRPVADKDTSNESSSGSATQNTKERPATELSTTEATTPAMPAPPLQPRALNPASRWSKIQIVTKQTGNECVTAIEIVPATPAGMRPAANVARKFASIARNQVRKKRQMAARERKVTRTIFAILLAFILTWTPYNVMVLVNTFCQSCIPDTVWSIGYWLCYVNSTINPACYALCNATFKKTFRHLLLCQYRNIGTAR
UniProt P04406, sequence (whole entry, looked up): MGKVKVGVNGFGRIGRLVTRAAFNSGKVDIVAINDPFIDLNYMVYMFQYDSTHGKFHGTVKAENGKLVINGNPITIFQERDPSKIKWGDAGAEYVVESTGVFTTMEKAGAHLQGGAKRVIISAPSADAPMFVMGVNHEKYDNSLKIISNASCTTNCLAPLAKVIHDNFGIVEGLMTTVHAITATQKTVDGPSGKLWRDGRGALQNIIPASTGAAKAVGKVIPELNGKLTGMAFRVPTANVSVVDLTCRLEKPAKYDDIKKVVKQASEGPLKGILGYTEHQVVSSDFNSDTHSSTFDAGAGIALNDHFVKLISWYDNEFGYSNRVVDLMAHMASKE
UniProt P12369, sequence (whole entry, unmodified, looked up): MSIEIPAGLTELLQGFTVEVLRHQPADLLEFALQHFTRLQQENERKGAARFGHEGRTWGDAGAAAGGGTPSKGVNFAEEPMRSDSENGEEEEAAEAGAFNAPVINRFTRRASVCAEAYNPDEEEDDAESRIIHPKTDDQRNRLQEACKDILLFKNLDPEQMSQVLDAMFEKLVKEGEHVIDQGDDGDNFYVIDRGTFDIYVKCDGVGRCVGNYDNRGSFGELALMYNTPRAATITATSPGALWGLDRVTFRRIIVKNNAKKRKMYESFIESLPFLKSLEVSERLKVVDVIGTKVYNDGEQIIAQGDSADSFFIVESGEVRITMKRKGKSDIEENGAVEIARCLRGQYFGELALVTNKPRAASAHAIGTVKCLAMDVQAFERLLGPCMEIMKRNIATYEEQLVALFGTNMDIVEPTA
UniProt O60656, sequence (whole entry, looked up): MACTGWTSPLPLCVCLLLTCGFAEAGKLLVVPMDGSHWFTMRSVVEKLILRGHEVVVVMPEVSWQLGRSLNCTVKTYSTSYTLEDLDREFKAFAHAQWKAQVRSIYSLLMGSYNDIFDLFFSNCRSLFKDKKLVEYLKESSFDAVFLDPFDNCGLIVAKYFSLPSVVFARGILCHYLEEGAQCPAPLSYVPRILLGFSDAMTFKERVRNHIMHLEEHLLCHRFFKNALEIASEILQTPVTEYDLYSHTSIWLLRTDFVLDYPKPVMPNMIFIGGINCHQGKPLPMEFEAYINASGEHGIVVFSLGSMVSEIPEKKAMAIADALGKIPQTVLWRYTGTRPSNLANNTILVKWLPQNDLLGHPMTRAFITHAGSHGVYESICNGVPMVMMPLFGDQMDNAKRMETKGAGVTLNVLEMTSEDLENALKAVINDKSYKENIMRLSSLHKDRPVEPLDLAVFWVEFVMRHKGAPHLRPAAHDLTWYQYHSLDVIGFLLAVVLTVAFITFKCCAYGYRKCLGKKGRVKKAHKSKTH

NS(=O)(=O)c1ccc(N2N=C(C(F)(F)F)C[C@H]2c2ccc(F)cc2F)cc1
IC80 (Cyclooxygenase-2 (Canis lupus familiaris, UniProt Q8SPQ9); PGE2 formation, inhibitor; dog whole blood; 24 h, together with: LPS): 38.3 µM

Nc1nc2c(ncn2[C@H]2C[C@@H]3OP(=O)(O)OC[C@H]4O[C@@H](n5cnc6c(=O)[nH]c(N)nc65)C[C@@H]4OP(=O)(O)OC[C@H]3O2)c(=O)[nH]1
Kd (T1, c-di-GMP riboswitch (Clostridium acetobutylicum); competitor, competition gel-shift; 4-24 h, pH 6.8, 22 °C, together with: radiolabelled c-di-GMP): 0.011 µM

O=c1cc(-c2ccccc2OCc2ccc(-c3ncco3)cc2)ncn1C1CCCCC1O (centres unmarked)
change in baseline activity (CHRM1; allosteric agonist, IP1 accumulation; CHO-M1 cells; 1 µM, unit not given; relative to: maximum ACh response): 5.5 ± 3.4

glutathione
remaining activity (GAPDH (Homo sapiens, UniProt P04406); enzyme activity, inhibitor, spectrophotometric; 10 µM; relative to: vehicle): 98.5 ± 3.6%

O=c1cc(-c2ccccc2OCc2ccc(-c3nccs3)cc2)ncn1C1CCCCC1O (centres unmarked)
ΔpEC50 of ACh (CHRM1; positive allosteric modulator, IP1 accumulation; CHO-M1 cells; 1 µM, 60 min, 37 °C, together with: ACh; relative to: ACh alone, higher = stronger potentiation): 1.01 ± 0.12 log units

CIKVAVS
inhibition (peptide, human polyclonal IgM RF SOR; concentration not given, 5 µg/mL mAb II-481 coated, together with: RF at 50% max binding concentration): 0%

N=C(N)c1ccccc1
current change (unc-8 (Caenorhabditis elegans, UniProt Q21974, G387E); ion current, two-electrode voltage clamp; Xenopus oocytes coexpressing MEC-2; 30 µM, -85 mV; relative to: uninjected oocytes, positive = inhibition): 0.32 µA

UGT1A9 (Homo sapiens, UniProt O60656)
Vmax/Km (O=c1cc(-c2ccccc2O)oc2cc(O)cc(O)c12; steady-state kinetics; pH 7.4, 37 °C): 3750 µL/min/mg

COc1ccc(C)c2sc(NC(=O)c3ccc(F)cc3)nc12
activity (CHRM4 (Homo sapiens, UniProt P08173); calcium mobilization, positive allosteric modulator; CHO expressing hM4 and Gqi5; concentration not given, together with: acetylcholine EC20): inactive

COc1cccc(C#Cc2ccc(C)cn2)c1
pKB (Grm5 (Rattus norvegicus, UniProt P31424); calcium mobilization, negative allosteric modulator; 30 min, together with: glutamate): 6.72 ± 0.26 -log M

CC(C)n1cc(-c2ccc(COc3ccccc3-c3cc(=O)n(C4CCCCC4O)cn3)cc2)cn1 (centres unmarked)
ΔpEC50 of ACh (CHRM1; positive allosteric modulator, IP1 accumulation; CHO-M1 cells; 10 µM, 60 min, 37 °C, together with: ACh; relative to: ACh alone, higher = stronger potentiation): 1.71 ± 0.33 log units

COC(=O)c1scc(C)c1NC(=O)C(C)N(CCO)CCO (centres unmarked)
capacity factor k′ (SCN10A (Homo sapiens, UniProt Q9Y5Y9); cell membrane chromatography; higher = stronger binding): 1.2

C=CC(=O)NCCCC[C@H](NC(=O)OCc1ccccc1)C(N)=O
kinact (TGM2 (Homo sapiens, UniProt P21980); pH 6.5): 0.018 ± 0.00767 s⁻¹

Nc1ncnc2c1nc(Sc1ccc(Cl)cc1)n2[C@@H]1O[C@@H]2COP(=O)(O)O[C@H]2[C@H]1O
selectivity ratio (cAMP-dependent protein kinase type II-beta regulatory subunit, holoenzyme with catalytic subunit (Prkar2b, Rattus norvegicus, UniProt P12369, S112A); PKA holoenzyme activation, activator, fluorescence anisotropy; relative to: RIIβ over RIα, higher = RIIβ-selective): 0.2

Cc1ccc(COc2ccccc2-c2cc(=O)n(C3CCCCC3O)cn2)cn1 (centres unmarked)
change in baseline activity (CHRM1; allosteric agonist, IP1 accumulation; CHO-M1 cells; 1 µM, unit not given; relative to: maximum ACh response): -13.4 ± 2.9

NYLAWYQ
inhibition (peptide, human polyclonal IgM RF SOR; concentration not given, 5 µg/mL mAb II-481 coated, together with: RF at 50% max binding concentration): 45%

Ic1ccc2[nH]ccc2c1
conversion (Dehaloperoxidase B, ferric (Amphitrite ornata, UniProt Q9NAV7); substrate, HPLC; 5% methanol; 5 min, pH 7, 25 °C, enzyme 10 µM, together with: H2O2 500 µM): 34%

A few entries again:
NS(=O)(=O)c1ccc(N2N=C(C(F)(F)F)C[C@H]2c2ccc(F)cc2F)cc1
IC80 (Cyclooxygenase-2 (Canis lupus familiaris, UniProt Q8SPQ9); PGE2 formation, inhibitor; dog whole blood; 24 h, together with: LPS): 38.3 µM
